Literature values as cited in several papers.
Values after ≈ are worked out from the molar mass of the structure shown.
Chain of UniProt Q9BVS4 (whole entry, looked up): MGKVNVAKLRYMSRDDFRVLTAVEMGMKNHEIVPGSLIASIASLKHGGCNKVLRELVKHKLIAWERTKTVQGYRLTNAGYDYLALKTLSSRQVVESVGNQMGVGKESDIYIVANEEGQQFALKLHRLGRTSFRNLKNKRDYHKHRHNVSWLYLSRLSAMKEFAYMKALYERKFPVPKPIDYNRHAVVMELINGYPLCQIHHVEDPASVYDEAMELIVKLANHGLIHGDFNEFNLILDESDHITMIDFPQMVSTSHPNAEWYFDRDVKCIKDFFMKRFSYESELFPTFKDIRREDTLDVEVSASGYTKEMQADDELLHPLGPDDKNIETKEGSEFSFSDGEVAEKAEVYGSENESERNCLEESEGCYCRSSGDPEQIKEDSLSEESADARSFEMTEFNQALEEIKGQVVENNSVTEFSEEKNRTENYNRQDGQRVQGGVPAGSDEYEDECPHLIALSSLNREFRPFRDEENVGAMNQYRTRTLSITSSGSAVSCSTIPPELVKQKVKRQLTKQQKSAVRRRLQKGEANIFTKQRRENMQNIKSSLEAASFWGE

`Cc1cc(-c2ncc(CC(=O)Nc3ccc(-c4cnccn4)cn3)cc2C)ccn1`: “incidence of nausea and vomiting” 25 to 30% (human, advanced cancer; dose not given, phase I trial; relative to: subjects).
`Cc1cn([C@@H]2C[C@@H](O)[C@H](CO)O2)c(=O)[nH]c1=O` gave an oral bioavailability of 68% (human).
`Cc1cnc(N2CC3(CCOCC3)C2)c(C(=O)Nc2ccc(C(=O)N3CCc4cc(C(=O)Nc5c(C)cccc5F)sc4-c4ccccc43)cc2)c1`: “plasma protein binding” over 99% (human plasma).
With `COc1ccc(NS(=O)(=O)c2ccc(N)cc2)nn1` the solubility was under 1 mg/mL (water).
For `COc1cc(N2CCC(N3CCN(C)CC3)CC2)ccc1Nc1ncc(Cl)c(Nc2ccccc2P(C)(C)=O)n1`, the AUC(0-inf) was 3040 ng·h/mL (healthy subjects; dose not given, CYP3A induction, single dose, added: rifampin 600 mg once daily).
With `Nc1cc(C(F)(F)F)c(-c2nc(N3CCOCC3)nc(N3CCOCC3)n2)cn1` the remaining activity was 90% (RIOK2 (Homo sapiens, UniProt Q9BVS4); enzyme activity; 10 µM; relative to: untreated).
The free Cmax of `Cc1nccn1CC1CCc2c(c3ccccc3n2C)C1=O` (stereo not drawn) is reported as 0.0939 µM (human).
For `C#C[C@]1(O)CC[C@H]2[C@@H]3CCC4=CC(=NO)CC[C@@H]4[C@H]3CC[C@@]21CC` (mixture of isomers), “Cmax, geometric mean” read 1.81 ng/mL (human, fasted; 0.25 mg norgestimate, single dose, reference formulation).
`Cc1cn([C@H]2C[C@H](N=[N+]=[N-])[C@@H](CO)O2)c(=O)[nH]c1=O` gave an oral bioavailability of 86% (human; 300 mg, tablet).
With `Cc1cn([C@H]2C[C@H](N=[N+]=[N-])[C@@H](CO)O2)c(=O)[nH]c1=O` the t1/2 was 2.02 h (plasma).
`COc1ccc2[nH]c([S+]([O-])Cc3ncc(C)c(OC)c3C)nc2c1` (stereo not drawn) has a Vd of 20 to 25 L (human).
`C=CC(=O)N1CCC(CNc2ncnc(N)c2-c2ccc(Oc3ccccc3)cc2)CC1`: “volume of distribution” 620 L (human; 75 mg once daily).
Under “total urinary excretion”, `Nc1ccn([C@@H]2O[C@H](CO)[C@@H](O)C2(F)F)c(=O)n1` is recorded as 92 to 98% (human; intravenous infusion, 1000 mg/m2, 30 min; relative to: dose).
For `Cn1nnc2c(C(N)=O)ncn2c1=O`, the elimination half-life was about 1.8 h (oral).
For `O=C(O)c1ccccc1O`, the solubility was under 1 mg/mL (water).
`C[Si](C)(C)O[Si](C)(C)O[Si](C)(C)O[Si](C)(C)C` has a log KOW of 8.13 (slow-stirring method; 1-octanol/water; 25 °C).
For `O=C(O)C(O)C(O)C(=O)O.c1cnc2cc3c(cc2n1)[C@@H]1CNC[C@H]3C1`, the free Cmax was 1.54e-05 µM (plasma).
`Cc1cn([C@H]2C=C[C@@H](CO)O2)c(=O)[nH]c1=O` has an oral bioavailability of over 80% (human; 1.33 mg/kg).
With `O=NN(CCCl)C(=O)NC1CCCCC1` the solubility was under 1 mg/mL (water).
`Nc1cccc2c1C(=O)N(C1CCC(=O)NC1=O)C2=O` (stereo not drawn): “febrile neutropenia incidence” 2% (relapsed refractory multiple myeloma patients; dose not given, grade 3-4).
For `Clc1ccccc1C(c1ccccc1)(c1ccccc1)n1ccnc1`, the Cmax was 3.36 µM (plasma; concentration not given, total, steady state).
`Nc1ccn([C@H]2CC[C@@H](CO)O2)c(=O)n1` gave an oral bioavailability of 30% (mouse).
`CCCOc1ccc(S(=O)(=O)N2CCN(CCO)CC2)cc1-c1nc2c(CCC)cn(CC)c2c(=O)[nH]1`: “pulse rate change” 17.9 bpm (healthy male volunteers; dose not given, with concomitant alcohol).
`CNC(C)C1CCC(N)C(OC2C(N)CC(N)C(OC3OCC(C)(O)C(NC)C3O)C2O)O1` (stereo not drawn) gave an MIC of over 8 mg/L (Acinetobacter baumannii; clinical isolate RKI-No_271/16).
With `CC(C)(CO)c1cc2cc(NC(=O)C3(c4ccc5c(c4)OC(F)(F)O5)CC3)c(F)cc2n1C[C@@H](O)CO` the elimination half-life was 25.1 h (non-pregnant cystic fibrosis patients).
The remaining compound of `N#Cc1ccc(C[C@H](NC(=O)Nc2ccc(F)cc2)C(=O)N2CCc3ccccc32)cc1` is reported as 22% (rat liver microsomes; 30 min).
The CL/F of `COc1cc(N2CCC3(CCN(C)CC3)CC2)ccc1Nc1ncc(Cl)c(Nc2ccccc2P(C)(C)=O)n1` is reported as 12.8 to 28.2 L/h (NSCLC patients; oral, 30 300 mg single dose).
For `Cc1cc(Nc2ncc(Cl)c(Nc3ccccc3S(=O)(=O)C(C)C)n2)c(OC(C)C)cc1C1CCNCC1`, the solubility was 0.00558 mg/mL (≈ 10 µM) (FaSSIF; literature value).
The AUC(0-24 h) of `FC(F)(F)c1ccc(CNc2ccc(Cc3c[nH]c4ncc(Cl)cc34)cn2)cn1` is reported as 38100 ng·h/mL (patients, plasma; oral, 400 mg once daily, day 1, mean).
With `CN1CCC(=C2c3ccccc3CC(=O)c3sccc32)CC1` the crossover pressure was 180 to 200 bar (supercritical CO2).
With `CC1(C)S[C@@H]2[C@H](NC(=O)[C@H](N)c3ccccc3)C(=O)N2[C@H]1C(=O)O` the MIC was over 16 mg/L (Acinetobacter baumannii; clinical isolate RKI-No_271/16).
For `Cc1nsc(-c2nnc3n2CCN(C(=O)c2ccc(F)cc2)[C@@H]3C)n1`, the CL/F was 10.8 L/h (non-smoking women with VMS; oral, lowest reported, population PK).
With `COc1c2occc2cc2ccc(=O)oc12` the diarrhoea incidence was 0% (human; concentration not given, clinical).
Under “fraction excreted unchanged”, `C=CC[C@@H]1/C=C(\C)C[C@H](C)C[C@H](OC)[C@H]2O[C@@](O)(C(=O)C(=O)N3CCCC[C@H]3C(=O)O[C@H](/C(C)=C/[C@@H]3CC[C@@H](O)[C@H](OC)C3)[C@H](C)[C@@H](O)CC1=O)[C@H](C)C[C@@H]2OC` is recorded as under 1% (human, urine; dose not given).
`Cc1cc(C)c(CNC(=O)c2cc(Cl)c3c(c2C)O[C@@](C)([C@H]2CC[C@H](N(C)C)CC2)O3)c(=O)[nH]1`: “total AUCinf increase” about 1.6 fold (human; dose not given, added: fluconazole, moderate CYP3A inhibitor; relative to: without fluconazole).
The Vd of `COc1cc(Cc2cnc(N)nc2N)cc(OC)c1OC` is reported as 0.72 L/kg (human).
For `Nc1ccn([C@@H]2CS[C@H](CO)O2)c(=O)n1`, the free Cmax was 19.5 µM (human).
`Cc1nnc(SCC2=C(C(=O)O)N3C(=O)[C@@H](NC(=O)Cn4cnnn4)[C@H]3SC2)s1` has a free Cmax of 208 µM (plasma; literature data).
The AUC(0-24 h) of `COCCc1ccc(OCC(O)CNC(C)C)cc1` (stereo not drawn) is reported as 3310 ng·h/mL (human fasted; 300 mg multiple doses, day 7, mean).
The pCu of `c1cc2nc(c1)CNCCNCCNC2` is reported as 16.7 (aqueous solution; Cu(II) 1 µM, ligand 10 µM).
With `Cc1cc(C)cc(OCC2CNC(=O)O2)c1` (stereo not drawn) the solubility was under 1 mg/mL (water).
The nausea incidence of `CCc1c(N(CC)C2CCOCC2)cc2oc(CN3CCCCC3)cc2c1C(=O)NCc1c(C)cc(C)[nH]c1=O` is reported as 21% (patients; dose not given).
`C[C@@H]1CCO[C@H]2Cn3cc(C(=O)NCc4ccc(F)cc4F)c(=O)c(O)c3C(=O)N12` — result for “therapeutic serum level”: 3 to 10 µM (human).
The Cmax of `CNCc1cc(-c2ccccc2F)n(S(=O)(=O)c2cccnc2)c1` is reported as 35.7 ng/mL (human, plasma; 30 mg single dose, observed clinical data).
For `O=C(O)CN1CCNCCN(CC(=O)O)CCNCC1`, the log KH3 was 4.06 (0.1 M KCl).
For `CN[C@H]1CC[C@@H](c2ccc(Cl)c(Cl)c2)c2ccccc21`, the crossover pressure was 170 to 195 bar (supercritical CO2).
`CN(C)C(=O)c1cc2cnc(Nc3ccc(N4CCNCC4)cn3)nc2n1C1CCCC1`: “adverse event incidence” 37.3% (refers to: diarrhea; advanced solid tumour or lymphoma patients; dose not given, 3 weeks on 1 week off, any grade; relative to: patients).
The solubility of `Cl.O=C1Cc2cc(CCN3CCN(c4nsc5ccccc45)CC3)c(Cl)cc2N1` is reported as 0.004 mg/mL (FaSSIF; literature value).
With `O=c1c(O)c(-c2ccc(O)c(O)c2)oc2cc(O)cc(O)c12` the Cmax was 0.05 µM (plasma; concentration not given, total, steady state).
For `C#CCC(Cc1cnc2nc(N)nc(N)c2n1)c1ccc(C(=O)N[C@@H](CCC(=O)O)C(=O)O)cc1` (stereo partly drawn), the solubility was under 1 mg/mL (water).
`COc1ccc(-c2oc3c(OC)c(OC)c(OC)c(O)c3c(=O)c2OC)cc1O`: toxicity “not toxic” (zebrafish Danio rerio embryos; dose not given).

Excerpt of the above:
For `COc1cc(N2CCC(N3CCN(C)CC3)CC2)ccc1Nc1ncc(Cl)c(Nc2ccccc2P(C)(C)=O)n1`, the AUC(0-inf) was 3040 ng·h/mL (healthy subjects; dose not given, CYP3A induction, single dose, added: rifampin 600 mg once daily).
With `Nc1cc(C(F)(F)F)c(-c2nc(N3CCOCC3)nc(N3CCOCC3)n2)cn1` the remaining activity was 90% (RIOK2 (Homo sapiens, UniProt Q9BVS4); enzyme activity; 10 µM; relative to: untreated).
The free Cmax of `Cc1nccn1CC1CCc2c(c3ccccc3n2C)C1=O` (stereo not drawn) is reported as 0.0939 µM (human).
